Results pooled from the literature.
Protocols differ between the studies behind these lines. “And” joins repeats or separate records; there may be more than shown. Numbers after ± are the reported error.
TDP1: Tyrosyl-DNA phosphodiesterase 1 (TDP1, Homo sapiens, UniProt Q9NUW8)
UniProt Q9NUW8, sequence (whole entry, looked up): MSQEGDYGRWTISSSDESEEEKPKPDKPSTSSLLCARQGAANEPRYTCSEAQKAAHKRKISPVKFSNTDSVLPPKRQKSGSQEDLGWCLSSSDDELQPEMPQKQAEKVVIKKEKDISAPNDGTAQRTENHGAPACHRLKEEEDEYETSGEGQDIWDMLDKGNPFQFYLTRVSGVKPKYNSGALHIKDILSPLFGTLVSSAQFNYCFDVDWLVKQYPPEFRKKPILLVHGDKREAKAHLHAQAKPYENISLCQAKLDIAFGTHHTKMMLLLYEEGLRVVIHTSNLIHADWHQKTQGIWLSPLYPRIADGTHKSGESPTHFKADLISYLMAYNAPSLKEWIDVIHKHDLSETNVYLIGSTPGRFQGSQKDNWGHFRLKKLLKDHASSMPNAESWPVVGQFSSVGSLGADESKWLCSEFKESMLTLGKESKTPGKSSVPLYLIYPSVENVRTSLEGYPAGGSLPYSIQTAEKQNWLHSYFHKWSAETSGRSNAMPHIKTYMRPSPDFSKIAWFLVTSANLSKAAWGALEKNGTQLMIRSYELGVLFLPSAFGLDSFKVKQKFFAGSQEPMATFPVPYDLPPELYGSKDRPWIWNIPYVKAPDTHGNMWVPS

`Cn1nc(CO)c(=O)c2c(=O)[nH]c(N)nc21` gave an intracellular accumulation of 11.4 µM (Escherichia coli; LC-MS/MS; BW25113; 100 µM, 10 min, 37 °C).
`C=Cc1cccc(C=NOCc2ccc3nc(-c4ccccc4)c(Nc4ccc(C(=O)O)cc4)n3c2)c1` has an inhibition of 8.2% (TDP1; enzyme activity, inhibitor; 100 µM, unpurified compound).
`CC(C)OCCOCc1ccc(OCC(O)CN(N=O)C(C)C)cc1` (centres unmarked) — result for “revertant fold increase”: 16.1 fold (Salmonella typhimurium; Ames test; TA1535; 1580 µg/plate, 30 % hamster S9; baseline: solvent control).
With `O=C(O)c1ccc(Nc2c(-c3ccccc3)nc3ccc(CON=Cc4ccc(-n5cncn5)cc4)cn23)cc1` (mixture of isomers) the inhibition was 20.9% (TDP1; enzyme activity, inhibitor; 100 µM, unpurified compound).
`O=C1C2CC3CC1CC(C(=O)N1CCN(c4ccc([N+](=O)[O-])c5ncccc45)CC1)(C3)C2`: “revertant fold increase” 0.9 (Salmonella typhimurium; Ames test; TA97a; 0.02 µg/well, with S9; baseline: vehicle).
`O=C1NC2(CC2)COc2ncc(F)cc2[C@H]2COCCN2c2ccn3ncc1c3n2` gave a revertant colonies of 92 ± 21 revertants/plate (Salmonella typhimurium; Ames test; TA97a; 5000 µg/plate, 48 h, added: rat liver S9).
`Cc1n[nH]c2nc(N)[nH]c(=O)c2c1=O` has an intracellular accumulation of 14.9 µM (Escherichia coli; LC-MS/MS; BW25113; 100 µM, 10 min, 37 °C).
Under “revertants per plate”, `Nc1nc2cc(C(=O)c3ccc(F)cc3)ccc2[nH]1` is recorded as 21 revertants/plate (Escherichia coli; Ames preincubation test; WP2 uvrA; 625.0 µg/plate, 3 days, without S9).
The revertants of `CCN(CC)CC#CCNc1ccnc2cc(Cl)ccc12` is reported as 24 revertants/well and 22 revertants/well (Salmonella typhimurium; mini-Ames test; TA100; 62.5 µg/well, without S9).
For `CC(C(=O)O)c1nn(C)c2nc(N)[nH]c(=O)c2c1=O` (centres unmarked), the intracellular accumulation was 4.32 ± 0.6 µM (Escherichia coli; LC-MS/MS; BW25113; 100 µM, 10 min, 37 °C).
`COC(=O)Nc1nc2cc(C(O)c3ccc(F)cc3)ccc2[nH]1` (centres unmarked) — result for “revertants per plate”: 43 revertants/plate (Escherichia coli; Ames preincubation test; WP2 uvrA; 875.0 µg/plate, 3 days, without S9).

Some of these lines once more:
For `CC(C(=O)O)c1nn(C)c2nc(N)[nH]c(=O)c2c1=O` (centres unmarked), the intracellular accumulation was 4.32 ± 0.6 µM (Escherichia coli; LC-MS/MS; BW25113; 100 µM, 10 min, 37 °C).
`COC(=O)Nc1nc2cc(C(O)c3ccc(F)cc3)ccc2[nH]1` (centres unmarked) — result for “revertants per plate”: 43 revertants/plate (Escherichia coli; Ames preincubation test; WP2 uvrA; 875.0 µg/plate, 3 days, without S9).
